Assay results pooled from the literature.
A part holds a random share of what one study measured.

Set 1
Molecule: PhoQ, residues 284 288 289 292 302 303 TGYLSA
Technique: Sort-seq
Measured: YFP reporter
Medium: E. coli
Notes: PhoQ-PhoP variant library
With: 10 µM Mg2+
Baseline: high Mg2+ state
Reading: higher = stronger signaling
target | fold induction
PhoP, residues 12 14 15 18 19 HHYTI (Escherichia coli, UniProt P23836) | 2.94
PhoP, residues 12 14 15 18 19 AYFRS (Escherichia coli, UniProt P23836) | 14.2
PhoP, residues 12 14 15 18 19 SFCSL (Escherichia coli, UniProt P23836) | 4.85

Set 2
Target: Sal-like protein 4, full length isoform A (SALL4, Homo sapiens, UniProt Q9UJQ4, residues 1-1053)
Chain of UniProt Q9UJQ4 (whole entry, looked up): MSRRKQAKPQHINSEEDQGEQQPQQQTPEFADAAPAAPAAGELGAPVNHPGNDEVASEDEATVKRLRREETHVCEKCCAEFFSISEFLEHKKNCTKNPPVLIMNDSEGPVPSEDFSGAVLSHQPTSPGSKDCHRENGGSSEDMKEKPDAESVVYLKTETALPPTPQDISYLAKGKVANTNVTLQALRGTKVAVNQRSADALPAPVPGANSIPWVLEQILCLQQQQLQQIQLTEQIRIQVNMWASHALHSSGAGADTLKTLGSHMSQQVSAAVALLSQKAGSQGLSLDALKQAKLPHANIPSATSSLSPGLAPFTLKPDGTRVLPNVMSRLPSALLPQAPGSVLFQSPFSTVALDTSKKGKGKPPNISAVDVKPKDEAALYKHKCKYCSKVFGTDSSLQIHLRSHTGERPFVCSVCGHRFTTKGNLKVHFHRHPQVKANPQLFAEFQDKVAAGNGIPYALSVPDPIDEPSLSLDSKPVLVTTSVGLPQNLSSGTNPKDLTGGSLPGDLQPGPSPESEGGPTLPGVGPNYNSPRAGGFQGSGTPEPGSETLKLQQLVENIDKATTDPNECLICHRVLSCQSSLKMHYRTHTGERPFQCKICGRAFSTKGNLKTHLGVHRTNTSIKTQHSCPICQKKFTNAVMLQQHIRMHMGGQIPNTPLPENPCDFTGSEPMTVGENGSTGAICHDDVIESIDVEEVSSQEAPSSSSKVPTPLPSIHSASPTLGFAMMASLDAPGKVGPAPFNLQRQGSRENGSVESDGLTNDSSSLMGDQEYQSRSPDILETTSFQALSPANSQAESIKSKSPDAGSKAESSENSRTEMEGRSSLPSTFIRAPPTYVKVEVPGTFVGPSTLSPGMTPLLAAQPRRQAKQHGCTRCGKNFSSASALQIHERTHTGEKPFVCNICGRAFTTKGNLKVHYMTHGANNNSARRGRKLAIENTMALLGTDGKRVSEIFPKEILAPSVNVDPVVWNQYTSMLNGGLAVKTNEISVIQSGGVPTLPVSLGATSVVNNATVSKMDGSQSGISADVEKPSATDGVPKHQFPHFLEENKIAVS
Technique: universal PBM
Molecule type: double-stranded DNA, one strand shown
Medium: in vitro
Tested at: 600 nM
Notes: 8-mer, flanks averaged, mean of replicates
Reading: higher = stronger binding
Sequence | E-score
CTGCGGTA | 0.0224
GCCGTCCA | -0.098
GGAGAAAA | 0.0695
ATTAGAAG | 0.119
ATTGAAAT | 0.354
ATTCGCAC | -0.206
AGTCCTGA | -0.0463
CCCTGTCC | -0.281
CTAAACAG | 0.103
AGGCATTC | -0.129

Set 3
Target: TAR DNA-binding protein 43, full length, His tag (TARDBP, Homo sapiens, UniProt Q13148, residues 1-414)
Technique: RNA Bind-n-Seq
Molecule type: RNA
Medium: in vitro
Tested at: 20 nM
Notes: 6-mer, flanks averaged, single round
With: 150 mM LiCl
Baseline: input library
Reading: higher = stronger binding
Sequence | 6-mer enrichment (R)
CAGAUC | 0.821
ACAUCU | 0.828
GACGGC | 0.927
CUGCUU | 0.949
ACCGUC | 0.84
GCGGCU | 1.01
UGUGCA | 1.21
UACGCU | 0.843

Set 4
Target: Histone acetyltransferase KAT6A, both winged helices, GST fusion (KAT6A, Homo sapiens, UniProt Q92794, residues 1-181)
Technique: protein binding microarray
Molecule type: double-stranded DNA, one strand shown
Medium: in vitro
Tested at: not given
Notes: 8-mer, flanks averaged, mean of 2 arrays, mostly near background
Baseline: not given
Reading: higher = stronger binding
Construct (chain): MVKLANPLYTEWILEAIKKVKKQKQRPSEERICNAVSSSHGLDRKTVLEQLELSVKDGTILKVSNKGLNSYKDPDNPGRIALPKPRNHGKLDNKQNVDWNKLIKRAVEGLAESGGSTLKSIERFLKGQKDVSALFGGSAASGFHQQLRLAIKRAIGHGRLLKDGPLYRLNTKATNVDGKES
Sequence | E-score
GTCGGAAC | 0.119
ACCAACCT | -0.0331
GAATGCGA | 0.0526
GCGACTAA | -0.0204
CTGCTCGC | 0.0786
ACTCTCAT | -0.117
CAAACTCC | 0.0997
CGCCGCTA | 0.346

For quick reference, copied from above (set 1):
target | fold induction
PhoP, residues 12 14 15 18 19 AYFRS (Escherichia coli, UniProt P23836) | 14.2
PhoP, residues 12 14 15 18 19 SFCSL (Escherichia coli, UniProt P23836) | 4.85
